# Results of several laboratories.
# Lines come from different studies, so protocols differ. ± marks the error that the study gave.
# GBA1 R534H: Lysosomal acid glucosylceramidase (GBA1, Homo sapiens, UniProt P04062, R534H)
# UniProt P04062, sequence (whole entry, unmodified, looked up): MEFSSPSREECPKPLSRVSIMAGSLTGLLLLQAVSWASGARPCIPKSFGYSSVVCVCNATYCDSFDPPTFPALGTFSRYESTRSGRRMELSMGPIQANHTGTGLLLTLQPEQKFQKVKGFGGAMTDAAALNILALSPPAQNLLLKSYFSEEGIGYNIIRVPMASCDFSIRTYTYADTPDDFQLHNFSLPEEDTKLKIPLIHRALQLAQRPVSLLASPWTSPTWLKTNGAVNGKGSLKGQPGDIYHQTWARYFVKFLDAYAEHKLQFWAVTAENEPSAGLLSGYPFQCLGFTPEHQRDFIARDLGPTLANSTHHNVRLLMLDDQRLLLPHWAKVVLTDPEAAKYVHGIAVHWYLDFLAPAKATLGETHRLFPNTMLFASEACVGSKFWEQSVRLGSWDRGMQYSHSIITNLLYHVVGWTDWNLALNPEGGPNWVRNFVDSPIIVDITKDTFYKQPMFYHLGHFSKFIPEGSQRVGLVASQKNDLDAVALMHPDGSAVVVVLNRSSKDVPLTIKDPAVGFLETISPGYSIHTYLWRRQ
Structure (SMILES),tested on,assay,system,conditions,scale,endpoint,result
NCCOc1cc(NC(=O)c2cc(OCc3cn([C@H]4O[C@@H](CO)[C@H](O)[C@@H](O)[C@@H]4O)nn3)cc(C(=O)Nc3cc(OCCN)c4ccccc4n3)n2)nc2ccccc12,c-kit1 G-quadruplex DNA,FRET melting,,"1 µM, pH 7.4, added: 60 mM potassium",,ΔTm,18.5 ± 0.8 K
O=C(O)C(Cc1c[nH]cn1)N1C(=O)c2ccc3c4ccc5c6c(ccc(c7ccc(c2c37)C1=O)c64)C(=O)N(CCN1CCCCC1)C5=O (stereo not shown),human TERT promoter G-rich DNA,"G-quadruplex induction, duplex-quadruplex competition, PAGE",,pH 6,,concentration for near-complete G-quadruplex formation,≥ 8 µM
CC(=O)c1cnc(N)nc1N1CC[C@H]1c1nn2ccc(Cl)c2c(=O)n1-c1ccccc1,somatostatin receptor,"radioligand binding, agonist",,10 µM,,inhibition,15%
CC(=O)NCCCN(C)CCCNc1cccc2c1C(=O)c1cccc(NCCCN(C)CCCNC(C)=O)c1C2=O,telomeric G-quadruplex DNA,"DNA thermal stabilisation, CD melting",,"concentration not given, pH 7.4, added: 100 mM KCl",,ΔTm,< 0.5 °C
CC(C)Cc1ccc(CN2CCCC(NC(=O)c3nn(C)c(=O)c4ccccc34)C2)cc1 (stereo not shown),Trypanosoma cruzi,"reporter mRNA translation, inhibitor, measured: capped polyadenylated Renilla luciferase mRNA",cell-free extract,concentration not given,reference: control RNA,relative translation,99.1%
C1=NCCCN=Cc2ccc([nH]2)-c2nc3ccccc3nc2-c2ccc1[nH]2,human ACTN3 291-bp linear dsDNA,high-resolution melt,,26.5 µM,,melting temperature,83 °C
CC1CCC2C(C)(C)C(O)CCC2(C)C12Cc1c(O)cc(CO)c(C=O)c1O2 (stereo not shown),StaI′ (Stachybotrys chartarum),substrate,,"30 min, pH 7.5, 40 °C",,Vmax,4.16 nmol/min/mg
Nc1ncc(-c2cc(-c3cnn(CC(F)(F)F)c3)ncc2F)nc1C(=O)NC1CNCC(F)C1 (stereo not shown),LTK,KINOMEscan,,1 µM,reference: DMSO control,remaining binding,100%
C=CC(=O)N1[C@@H](c2ccc3c(c2)OCO3)c2[nH]c3ccccc3c2C[C@H]1C(=O)N1CCN(C)CC1,CCNE1 WT-3xFLAG:CDK2 complex,"co-IP TMT proteomics, measured: SAMHD1",HEK-293T,"20 µM, 6 h",reference: DMSO,log2 fold change,-0.23
CN1CCCNC(=O)CC2(CCCCC2)CC(=O)NCCCN(C)CCCNc2cccc3c2C(=O)c2cccc(c2C3=O)NCCC1,telomeric G-quadruplex DNA,"DNA thermal stabilisation, CD melting",,"concentration not given, pH 7.4, added: 100 mM NaCl",,ΔTm,< 0.5 °C
C[C@]12CCC(O)CC1=CCC1C2CC[C@]2(C)/C(=N\NC(N)=S)CCC12 (stereo partly shown),Trypanosoma cruzi,"reporter mRNA translation, inhibitor, measured: capped polyadenylated Renilla luciferase mRNA",cell-free extract,concentration not given,reference: control RNA,relative translation,114%
OC[C@@H]1[C@@H](O)[C@H](O)[C@@H](O)CN1CCCCCOCc1ccc(-c2ccccc2)c(F)c1,GBA1 R534H,"inhibitor, 4MU-β-D-glucopyranoside",,added: 4MU-β-D-glucopyranoside,,IC50,200 nM
CC(C)C[C@@H]1NC(=O)[C@H](Cc2ccc(O)cc2)NC(=O)[C@H](CCCNC(=N)N)NC(=O)[C@H](C)NC(=O)[C@H]([C@@H](C)O)NC(=O)[C@H](Cc2ccc(O)cc2)NC(=O)CSC[C@@H](C(N)=O)NC(=O)[C@H](CCCCN)NC(=O)[C@H](Cc2ccc(O)cc2)NC(=O)[C@H](Cc2c[nH]cn2)NC(=O)[C@H](CC(C)C)NC(=O)[C@H]([C@@H](C)O)NC(=O)CNC(=O)[C@H](CC(C)C)NC(=O)[C@H]([C@@H](C)O)NC1=O,HTT-HAP40 complex,differential scanning fluorimetry,,up to 10 µM,,ΔTm,no effect
c1ccc(-c2n[nH]cc2-c2ccnc3ccccc23)nc1,YPK1 (Candida albicans),"kinase binding, MIB/MS competition",Candida albicans lysate,1 µM,reference: DMSO,log2 fold change,-0.08
CC1(C)C[N+]2=Cc3ccc4[n]3[Au-]23[n]2c(ccc2-c2nc5ccccc5nc2-4)C=[N+]3C1.F[P-](F)(F)(F)(F)F,human ACTN3 291-bp linear dsDNA,high-resolution melt,,80.8 nM,,melting temperature,83.1 °C
Fc1ccc(Nc2nc(NC3CCCCC3)c3ccccc3n2)cc1F,β2AR/β1AR TM2 chimera,"β-arrestin2 recruitment, antagonist, BRET",,added: isoprenaline 1 µM,,pIC50,5.8
CC[C@H]1OC(=O)[C@H](C)[C@@H](OC(=O)Cc2ccc([N+](=O)[O-])cc2)[C@H](C)[C@@H](O[C@@H]2O[C@H](C)C[C@H](N(C)C)[C@H]2O)[C@](C)(OC)C[C@@H](C)C(=O)[C@H](C)[C@@H](O)[C@]1(C)O,Escherichia coli ribosome,"in vitro transcription-translation, inhibitor",,,,IC50,290 nM
NCCCn1cc(COc2cc(C(=O)Nc3cc(OCCN)c4ccccc4n3)nc(C(=O)Nc3cc(OCCN)c4ccccc4n3)c2)nn1,c-kit1 G-quadruplex DNA,FRET melting,,"1 µM, pH 7.4, added: 60 mM potassium",,ΔTm,13.5 ± 0.8 K
C=CC(=O)Nc1cccc(Cn2ncc3cnc(Nc4cnn(CCOC)c4)nc32)c1,AXL human,"binding, KINOMEscan",,100 nM,lower = stronger binding,percent of control,100%
CC[C@H]1OC(=O)[C@H](C)[C@@H](O)[C@H](C)[C@@H](O[C@@H]2O[C@H](C)C[C@H](N(C)C)[C@H]2OC(C)=O)[C@](C)(OC)C[C@@H](C)C(=O)[C@H](C)[C@@H](O)[C@]1(C)O,Escherichia coli ribosome,"in vitro transcription-translation, inhibitor",,,,IC50,7100 nM
C1=[N+]2CCCC[N+]3=Cc4ccc5[n]4[Au-]23[n]2c1ccc2-c1nc2ccccc2nc1-5.F[P-](F)(F)(F)(F)F,human ACTN3 291-bp linear dsDNA,high-resolution melt,,2.08 µM,,melting temperature,83.8 °C
CC(C)=CCOCCCCCN1C[C@H](O)[C@@H](O)[C@H](O)[C@@H]1CO,GBA1 R534H,"inhibitor, 4MU-β-D-glucopyranoside",,added: 4MU-β-D-glucopyranoside,,IC50,100000 nM
CC[C@H]1OC(=O)[C@H](C)[C@@H](OC(=O)Cc2ccc(Cl)cc2)[C@H](C)[C@@H](O[C@@H]2O[C@H](C)C[C@H](N(C)C)[C@H]2O)[C@](C)(OC)C[C@@H](C)C(=O)[C@H](C)[C@@H](O)[C@]1(C)O,Escherichia coli ribosome,"in vitro transcription-translation, inhibitor",,,,IC50,520 nM
CN1CCCNC(=O)c2cccc(c2)C(=O)NCCCN(C)CCCNc2cccc3c2C(=O)c2cccc(c2C3=O)NCCC1,telomeric G-quadruplex DNA,"DNA binding, UV-Vis titration",,,reference: Ka telomeric G1 over double-stranded DNA,selectivity ratio,86
CC[C@H]1OC(=O)[C@H](C)[C@@H](OC(=O)Cc2ccccc2Cl)[C@H](C)[C@@H](O[C@@H]2O[C@H](C)C[C@H](N(C)C)[C@H]2O)[C@](C)(OC)C[C@@H](C)C(=O)[C@H](C)[C@@H](O)[C@]1(C)O,Escherichia coli ribosome,"in vitro transcription-translation, inhibitor",,,,IC50,230 nM
C1=[N+]2CCC[N+]3=Cc4ccc5[n]4[Au-]23[n]2c1ccc2-c1nc2ccccc2nc1-5.F[P-](F)(F)(F)(F)F,human ACTN3 291-bp linear dsDNA,high-resolution melt,,408 nM,,melting temperature,83.3 °C
Fc1ccc(Nc2nc(NC3CCCCC3)c3cc(C(F)(F)F)ccc3n2)cc1F,β2AR/β1AR TM2 chimera,"β-arrestin2 recruitment, antagonist, BRET",,added: isoprenaline 1 µM,,pIC50,6.5
CC(C)(CO)Cc1cn(C2CCCN(C(=O)c3ccc4c(c3)CCOC4(C)C)CC2)nn1 (stereo not shown),FSP1 L323A,"resorufin formation, inhibitor",,"added: NADH, resazurin",,IC50,no inhibition

# Repeated from above:
Structure (SMILES),tested on,assay,system,conditions,scale,endpoint,result
Nc1ncc(-c2cc(-c3cnn(CC(F)(F)F)c3)ncc2F)nc1C(=O)NC1CNCC(F)C1 (stereo not shown),LTK,KINOMEscan,,1 µM,reference: DMSO control,remaining binding,100%
NCCOc1cc(NC(=O)c2cc(OCc3cn([C@H]4O[C@@H](CO)[C@H](O)[C@@H](O)[C@@H]4O)nn3)cc(C(=O)Nc3cc(OCCN)c4ccccc4n3)n2)nc2ccccc12,c-kit1 G-quadruplex DNA,FRET melting,,"1 µM, pH 7.4, added: 60 mM potassium",,ΔTm,18.5 ± 0.8 K
